Measurements from different studies.
Numbered parts are unrelated; each lists some results of a single study.

Series 1 — technique: universal PBM; form: double-stranded DNA, one strand shown; medium: in vitro; tested at: not given; direction: higher = stronger binding
Target: Sal-like protein 4, full length isoform B (SALL4, Homo sapiens, UniProt Q9UJQ4-2, residues 1-616)
Notes: 8-mer, flanks averaged, mean of replicates
| Strand | E-score |
| --- | --- |
| AGGTAACT | 0.0006 |
| CCGTAAAC | -0.00606 |
| AGGGCCTG | -0.317 |

Series 2 — technique: RNAcompete; form: RNA; medium: in vitro; tested at: 20 nM; notes: 7-mer, probes averaged, single round; reference: mean of 7-mers; direction: higher = stronger binding
Target: PABPC1L2, full length, GST fusion (mouse, UniProt A0ABA7IW68)
Residues (chain): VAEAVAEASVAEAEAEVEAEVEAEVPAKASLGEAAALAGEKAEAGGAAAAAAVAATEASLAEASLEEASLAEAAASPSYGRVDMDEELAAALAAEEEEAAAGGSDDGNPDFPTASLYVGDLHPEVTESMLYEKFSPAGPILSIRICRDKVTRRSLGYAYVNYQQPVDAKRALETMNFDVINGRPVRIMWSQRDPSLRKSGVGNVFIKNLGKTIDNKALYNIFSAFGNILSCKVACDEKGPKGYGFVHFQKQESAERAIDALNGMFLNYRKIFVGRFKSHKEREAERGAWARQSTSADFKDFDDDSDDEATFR
| Strand | 7-mer Z-score |
| --- | --- |
| UCUUUUA | 0.385 |
| CCGUCAC | -0.229 |
| GCUUGGG | 0.075 |

Series 3 — technique: protein binding microarray; form: double-stranded DNA, one strand shown; medium: in vitro; tested at: not given; reference: not given; direction: higher = stronger binding
Target: Histone acetyltransferase KAT6A, both winged helices, GST fusion (KAT6A, Homo sapiens, UniProt Q92794, residues 1-181)
Notes: 8-mer, flanks averaged, mean of 2 arrays, mostly near background
Target sequence (chain): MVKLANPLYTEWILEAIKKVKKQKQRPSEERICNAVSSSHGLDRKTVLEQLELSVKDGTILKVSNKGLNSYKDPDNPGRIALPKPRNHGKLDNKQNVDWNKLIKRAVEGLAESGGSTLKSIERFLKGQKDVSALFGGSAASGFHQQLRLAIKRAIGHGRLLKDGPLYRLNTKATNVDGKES
| Strand | E-score |
| --- | --- |
| AGATATGG | -0.151 |
| ATAGTCTA | -0.0402 |
| CCTTATAA | -0.0027 |

Further values, each from its own experiment
| Substance | target | assay | test system | conditions | how to read | quantity | value |
| --- | --- | --- | --- | --- | --- | --- | --- |
| PhoQ, residues 284 288 289 292 302 303 NLSRDF | PhoP, residues 12 14 15 18 19 SGWQI (Escherichia coli, UniProt P23836) | Sort-seq, measured: YFP reporter | E. coli | PhoQ-PhoP variant library, with: 10 µM Mg2+ | reference: high Mg2+ state, higher = stronger signaling | fold induction | 13.7 |

For quick reference, copied from above (series 2):
| Strand | 7-mer Z-score |
| --- | --- |
| CCGUCAC | -0.229 |
| GCUUGGG | 0.075 |
